Assay results pooled from the literature.
Compare with care: the assays were run in different laboratories. ± gives the spread as reported.

Structure (SMILES)	tested on	test	system	conditions	how to read	measurement	value
N=C(N)c1ccc(-c2ccc(-c3ccco3)o2)c(F)c1	Salmonella enterica	sodium azide mutagenicity	TA1535	20 µM, 48 h, together with: sodium azide 2 µg/plate after pre-exposure	–	inhibition	106%
CCCCCc1cc(O)c2c(c1)OC(C)(C)[C@@H]1CCC(C)=C[C@@H]21	–	drug discrimination	C57BL/6J mice, female	intraperitoneal, 30 min pretreatment	–	ED50	1.96 mg/kg
COC(=O)[C@H](CCSC)NC(=O)[C@H]1O[C@@H](O[C@H]2[C@@H](O[C@H]3CC[C@]4(C)[C@H]5C(=O)C=C6[C@@H]7C[C@@](C)(C(=O)N[C@@H](CCSC)C(=O)OC)CC[C@]7(C)CC[C@@]6(C)[C@]5(C)CC[C@H]4C3(C)C)O[C@H](C(=O)N[C@@H](CCSC)C(=O)OC)[C@@H](O)[C@@H]2O)[C@H](O)[C@@H](O)[C@@H]1O	dengue virus type 2	viral replication	Vero E6	10 µM, 96 h	baseline: infected untreated	inhibition	> 50%
COc1cccc2c1C(=O)c1c(O)c3c(c(O)c1C2=O)C[C@@](O)(C(=O)CO)C[C@@H]3O[C@H]1C[C@H](NC(=O)[C@@H]2CCCN2C(=O)CNC(=O)[C@H](CC(C)C)NC(=O)[C@H](C)NC(=O)CP(=O)(O)O)[C@H](O)[C@H](C)O1	–	–	mouse, E0771 tumour-bearing, kidney	intravenous, 92 µmol/kg	–	terminal half-life	9 h
CN[C@@](C)(C[18F])C(=O)O	SK-OV-3 tumour model	–	host not given, liver	2 h, tumour-bearing	–	tracer uptake	2.5 %ID/g
CNC(C)Cc1ccc2c(c1)OCO2 (racemic)	–	visual analog scale, item: Lonely	human	oral, 0.75 mg/kg, mean over session, unit not given	baseline: pre-dose baseline	mood rating	4.8
N#Cc1ccc(-c2ccc(-c3cccs3)o2)cc1F	Salmonella enterica	sodium azide mutagenicity	TA1535	20 µM, 48 h, together with: sodium azide 2 µg/plate co-exposure	–	inhibition	81 ± 10.4%
C[C@H](Cn1cnc2c(N)ncnc21)OCP(=O)(O)O	human alphaherpesvirus 2	virus production	human monocytes/macrophages	5 µg/mL, 6 days	–	inhibition	80%
CC(C)[C@]12O[C@H]1[C@@H]1O[C@]13[C@]1(O[C@H]1C[C@H]1C4=C(CC[C@@]13C)C(=O)OC4)[C@@H]2O	human respiratory syncytial virus	viral replication	BEAS-2B	5 µM, 40 h	–	inhibition	1.5 ± 21%
N#Cc1ccc(-c2ccc(-c3cccs3)o2)c(F)c1	Salmonella enterica	sodium azide mutagenicity	TA1535	20 µM, 48 h, together with: sodium azide 2 µg/plate co-exposure	–	inhibition	90%
O=C(Nc1ccccc1-c1ccc(Cl)cc1)c1cccnc1Cl	Sclerotinia sclerotiorum	microbial growth	–	50 µg/mL	–	inhibition	100%
Cn1nnc2c(C(N)=O)ncn2c1=O	human respiratory syncytial virus	viral replication	BEAS-2B	5 µM, 40 h	–	inhibition	96 ± 1.3%
N#Cc1ccc(-c2ccc(-c3ccco3)o2)cc1F	Salmonella enterica	sodium azide mutagenicity	TA1535	10 µM, 48 h, together with: sodium azide 2 µg/plate after pre-exposure	–	inhibition	62%
N=C(N)NCCC[C@@H]1NC(=O)[C@H](CCCCNC(=O)[C@H](CC(=O)O)NC(=O)[C@H](CC(=O)O)NC(=O)[C@H](CC(=O)O)NC(=O)CC[C@H](NC(=O)CCOCCOCCOCCOCCNC(=O)c2ccc(NN)nc2)C(=O)N[C@@H](CC(=O)O)C(=O)N[C@@H](CC(=O)O)C(=O)N[C@@H](CC(=O)O)C(=O)NCCCC[C@@H]2NC(=O)[C@@H](Cc3ccccc3)NC(=O)[C@H](CC(=O)O)NC(=O)CNC(=O)[C@H](CCCNC(=N)N)NC2=O)NC(=O)[C@@H](Cc2ccccc2)NC(=O)[C@H](CC(=O)O)NC(=O)CNC1=O [technetium-99m labelled]	–	γ-counting	female athymic nude mice, U-87 MG xenograft, heart	intravenous, 1 h	–	tissue uptake	1.66 ± 0.05 %ID/g
CP(=O)(O)CCC(N)C(=O)O (stereo not shown)	Echinochloa crus-galli	–	–	60 g/ha, 13 days, post-emergence spray	baseline: untreated (0%), complete kill (100%)	herbicidal activity	80%
N=C(N)c1ccc(-c2ccc(-c3cccs3)o2)c(F)c1	Salmonella enterica	sodium azide mutagenicity	TA1535	10 µM, 48 h, together with: sodium azide 2 µg/plate after pre-exposure	–	inhibition	32%
CC(C)c1ccc2c(c1)CC[C@H]1[C@](C)(CN)CCC[C@]21C	SK-MEL-24	cell growth or viability, MTS	–	24 h	–	IC50	1970 nM
CC(=O)[C@]1(O)Cc2c(O)c3c(c(O)c2[C@@H](O[C@H]2C[C@H](N)[C@H](O)[C@H](C)O2)C1)C(=O)c1ccccc1C3=O	human respiratory syncytial virus	viral replication	BEAS-2B	5 µM, 40 h	–	inhibition	95 ± 1.3%
N=C(N)c1ccc(-c2ccc(-c3cccs3)o2)cc1F	Salmonella enterica	sodium azide mutagenicity	TA1535	20 µM, 48 h, together with: sodium azide 2 µg/plate after pre-exposure	–	inhibition	86%
CCN(CC)CCNC(=O)c1cn(CC)c2cc(N3CCN(C(=O)c4ccco4)CC3)c(F)cc2c1=O	Mycolicibacterium smegmatis	microbial growth	–	50 µM	–	inhibition	~20%
COc1cccc2c1C(=O)c1c(O)c3c(c(O)c1C2=O)C[C@@](O)(C(=O)CO)C[C@@H]3O[C@H]1C[C@H](N)[C@@H](O)[C@H](C)O1	human respiratory syncytial virus	viral replication	BEAS-2B	5 µM, 40 h	–	inhibition	62 ± 6.3%
CCn1cc(C(=O)Nc2cc(C)ccn2)c(=O)c2cc(F)c(N3CCN(C(=O)c4ccco4)CC3)cc21	Mycolicibacterium smegmatis	microbial growth	–	20 µM	–	inhibition	~50%
CN1CC[C@]23c4c5ccc(O)c4O[C@H]2[C@@H](O[C@@H]2O[C@H](C(=O)O)[C@@H](O)[C@H](O)[C@H]2O)C=C[C@H]3[C@H]1C5	MDCK II	–	–	10.0 µg/mL, 100 min, Hanks buffer	–	Papp	3.06 ± 0.16 ×10⁻⁶ cm/s
CN(Cc1cnc2nc(N)nc(N)c2n1)c1ccc(C(=O)N[C@@H](CCC(=O)O)C(=O)O)cc1	human respiratory syncytial virus	viral replication	BEAS-2B	5 µM, 40 h	–	inhibition	99 ± 0.5%
CCn1cc(C(=O)NCc2ccncc2)c(=O)c2cc(F)c(N3CCN(C(=O)c4ccco4)CC3)cc21	Mycolicibacterium smegmatis	microbial growth	–	50 µM	–	inhibition	~20%
CC[C@]1(O)C[C@H]2CN(CCc3c([nH]c4ccccc34)[C@@](C(=O)OC)(c3cc4c(cc3OC)N(C=O)[C@H]3[C@@](O)(C(=O)OC)[C@H](OC(C)=O)[C@]5(CC)C=CCN6CC[C@]43[C@@H]65)C2)C1	human respiratory syncytial virus	viral replication	BEAS-2B	5 µM, 40 h	–	inhibition	79 ± 6.9%
CCn1cc(C(=O)Nc2ncccc2C)c(=O)c2cc(F)c(N3CCN(C(=O)c4ccco4)CC3)cc21	Mycolicibacterium smegmatis	microbial growth	–	50 µM	–	inhibition	~100%
C[C@H]1CNCCc2ccc(Cl)cc21	–	–	Sprague-Dawley rat, male, plasma	subcutaneous, 3 mg/kg, 120 min	–	plasma concentration	32.4 ± 1.07 ng/mL

For quick reference, copied from above:
Structure (SMILES)	tested on	test	system	conditions	how to read	measurement	value
CNC(C)Cc1ccc2c(c1)OCO2 (racemic)	–	visual analog scale, item: Lonely	human	oral, 0.75 mg/kg, mean over session, unit not given	baseline: pre-dose baseline	mood rating	4.8
N#Cc1ccc(-c2ccc(-c3cccs3)o2)cc1F	Salmonella enterica	sodium azide mutagenicity	TA1535	20 µM, 48 h, together with: sodium azide 2 µg/plate co-exposure	–	inhibition	81 ± 10.4%
C[C@H](Cn1cnc2c(N)ncnc21)OCP(=O)(O)O	human alphaherpesvirus 2	virus production	human monocytes/macrophages	5 µg/mL, 6 days	–	inhibition	80%
CC(C)[C@]12O[C@H]1[C@@H]1O[C@]13[C@]1(O[C@H]1C[C@H]1C4=C(CC[C@@]13C)C(=O)OC4)[C@@H]2O	human respiratory syncytial virus	viral replication	BEAS-2B	5 µM, 40 h	–	inhibition	1.5 ± 21%
N#Cc1ccc(-c2ccc(-c3cccs3)o2)c(F)c1	Salmonella enterica	sodium azide mutagenicity	TA1535	20 µM, 48 h, together with: sodium azide 2 µg/plate co-exposure	–	inhibition	90%
